Measurements collected from several papers.
Protocols differ between the studies behind these lines. Values joined by “and” are separate records of one study, mostly repeats; a detail may differ. ± gives the spread as reported.
Cell line: MCF7

For O=c1[nH]c(=O)c2cccc(O)c2o1, the IC50 was 100 µM (cytotoxicity).
CCCCn1cc(C(=O)O)c(=O)c2cc(F)c(Nc3cccc(Cl)c3)c([N+](=O)[O-])c21 gave an IC50 of 6 µM and 5.99 µM (cell proliferation, SRB; 72 h).
CO[C@H]1CC(O)=C2C(=O)c3c(cc(C)c(-c4c(C)cc5c(c4O)C(=O)C4=C(O)C[C@H](OC)[C@@H](O)[C@]4(C)O5)c3O)O[C@@]2(C)[C@@H]1O gave an IC50 of 30.5 µM (cell growth or viability, resazurin; 72 h).
The IC50 of CC=C(C)C(=O)OC1C(O)C2OC(COC(=O)CCC(=O)CCCCCCC(CCCCC)OC3OC(C)C(O)C(O)C3O2)C1OC(=O)C=Cc1ccccc1 (stereo not shown) is reported as 0.0867 µM (cytotoxicity).
C#CCCC[C@@H]1OC(=O)CNC(=O)[C@H]([C@@H](C)CC)NC(=O)[C@@H]2CCCN2C(=O)[C@H]([C@@H](C)CC)OC(=O)[C@H](Cc2ccccc2)NC(=O)[C@H](C(C)C)NC(=O)C1(C)C has an IC50 of over 100 µM (cell growth or viability, MTT; 48 h).
CC=C(C)C(=O)OC1C(OC(=O)C=Cc2ccccc2)C2COC(=O)CCC(=O)CCCCCCC(CCCCC)OC3OC(C)C(OC(C)=O)C(OC(C)=O)C3OC(O2)C1OC(C)=O (stereo not shown) gave an IC50 of over 10 µM (cytotoxicity).
The IC50 of CCCCn1cc(C(=O)O)c(=O)c2cc(F)c3c(nnn3-c3cccc(Cl)c3)c21 is reported as 22.5 ± 1.54 µg/mL (cell growth, SRB; 72 h).
COc1cc(O)c2c(=O)c3c(O)c(-c4c(C)cc5c(c4O)C(=O)C4=C(O)C[C@H](OC)[C@@H](O)[C@]4(C)O5)c(C)cc3oc2c1OC has an IC50 of over 82.4 µM (cell growth or viability, resazurin; 72 h).
The IC50 of CCCCn1cc(C(=O)O)c(=O)c2cc(F)c(Nc3ccccc3Cl)c([N+](=O)[O-])c21 is reported as 63.6 µM (cell growth or viability, SRB).
With CC=C(C)C(=O)OC1C(O)C2OC(COC(=O)CCC(=O)CCCCCCC(CCCCC)OC3OC(C)C(OC(C)=O)C(O)C3O2)C1OC(=O)CCc1ccccc1 (stereo not shown) the IC50 was 2.56 µM (cytotoxicity).

Repeated from above:
COc1cc(O)c2c(=O)c3c(O)c(-c4c(C)cc5c(c4O)C(=O)C4=C(O)C[C@H](OC)[C@@H](O)[C@]4(C)O5)c(C)cc3oc2c1OC has an IC50 of over 82.4 µM (cell growth or viability, resazurin; 72 h).
The IC50 of CCCCn1cc(C(=O)O)c(=O)c2cc(F)c(Nc3ccccc3Cl)c([N+](=O)[O-])c21 is reported as 63.6 µM (cell growth or viability, SRB).
